Published values gathered from unrelated publications.
± marks the error that the study gave.

CCCC[C@H](NC(=O)CNC(=O)CNC(=O)c1ccc(NN)nc1)C(=O)N[C@H]1CC(=O)NCCCC[C@@H](C(N)=O)NC(=O)[C@H](Cc2c[nH]c3ccccc23)NC(=O)[C@H](CCCNC(=N)N)NC(=O)[C@@H](Cc2ccccc2)NC(=O)[C@H](Cc2c[nH]cn2)NC1=O [technetium-99m labelled]  tissue uptake ratio (C57 mouse, B16/F1 melanoma-bearing; intravenous, 0.5 h; baseline: tumour over muscle): 50.9
CCCC[C@H](NC(=O)CCCCCCCNC(=O)c1ccc(NN)nc1)C(=O)N[C@H]1CC(=O)NCCCC[C@@H](C(N)=O)NC(=O)[C@H](Cc2c[nH]c3ccccc23)NC(=O)[C@H](CCCNC(=N)N)NC(=O)[C@@H](Cc2ccccc2)NC(=O)[C@H](Cc2c[nH]cn2)NC1=O [technetium-99m labelled]  tissue uptake (C57 mouse, B16/F1 melanoma, heart; 2 h, with: NDP-MSH 10 µg (6.07 nmol) co-injected): 0.32 ± 0.09 %ID/g
N=C(N)NCCC[C@@H]1NC(=O)[C@H](CCCCNC(=O)CCOCCOCCOCCOCCNC(=O)CN2CCN(CC(=O)O)CCN(CC(=O)O)CCN(CC(=O)O)CC2)NC(=O)[C@@H](Cc2ccccc2)NC(=O)[C@H](CC(=O)O)NC(=O)CNC1=O [indium-111 labelled]  tissue uptake (female athymic nude mice, blood; intravenous, 3 µCi, 72 h, U-87 MG glioma xenograft): 0.02 ± 0.01 %ID/g
CCCC[C@H](NC(=O)CNC(=O)CNC(=O)CNC(=O)c1ccc(NN)nc1)C(=O)N[C@H]1CC(=O)NCCCC[C@@H](C(N)=O)NC(=O)[C@H](Cc2c[nH]c3ccccc23)NC(=O)[C@H](CCCNC(=N)N)NC(=O)[C@@H](Cc2ccccc2)NC(=O)[C@H](Cc2c[nH]cn2)NC1=O [technetium-99m labelled]  uptake (C57 mouse, B16/F1 melanoma, liver; intravenous, 2 h): 0.26 ± 0.03 %ID/g
CC(C)C[C@H](NC(=O)[C@@H]1CCCN1C(=O)[C@H](CCCCN)NC(=O)[C@@H](N)CO)C(=O)N1CCC[C@H]1C(=O)N[C@@H](CCC(=O)O)C(=O)N[C@H](C(=O)N[C@H](C(=O)N[C@@H](CC(=O)O)C(=O)N[C@@H](CCC(=O)O)C(=O)N[C@@H](Cc1ccc(O)cc1)C(=O)N[C@@H](Cc1cn(CCOCCOCCOCCNC(=O)CCc2ccc(O)c(CN(CCN(CC(=O)O)Cc3cc(CCC(=O)NCCCC[C@H](NC(=O)N[C@@H](CCC(=O)O)C(=O)O)C(=O)O)ccc3O)CC(=O)O)c2)nn1)C(=O)O)[C@@H](C)O)C(C)C [gallium-68 labelled]  standardized uptake value (NMRI nu/nu mice, LNCaP tumour, liver; 10 MBq, high molar activity): 0.11 g/g
N=C(N)NCCC[C@@H]1NC(=O)[C@H](CCCCNC(=O)CC[C@H](NC(=O)CCOCCOCCOCCOCCNC(=O)CC[C@H](NC(=O)CN2CCN(CC(=O)O)CCN(CC(=O)O)CCN(CC(=O)O)CC2)C(=O)NCCOCCOCCOCCOCCC(=O)N[C@@H](CCC(=O)NCCCC[C@@H]2NC(=O)[C@@H](Cc3ccccc3)NC(=O)[C@H](CC(=O)O)NC(=O)CNC(=O)[C@H](CCCNC(=N)N)NC2=O)C(=O)NCCCC[C@@H]2NC(=O)[C@@H](Cc3ccccc3)NC(=O)[C@H](CC(=O)O)NC(=O)CNC(=O)[C@H](CCCNC(=N)N)NC2=O)C(=O)NCCCC[C@@H]2NC(=O)[C@@H](Cc3ccccc3)NC(=O)[C@H](CC(=O)O)NC(=O)CNC(=O)[C@H](CCCNC(=N)N)NC2=O)NC(=O)[C@@H](Cc2ccccc2)NC(=O)[C@H](CC(=O)O)NC(=O)CNC1=O [indium-111 labelled]  tissue uptake (athymic nude mice, female, U-87 MG glioma xenograft, U-87 MG tumour; intravenous, 3 µCi, 0.5 h): 13 ± 5.99 %ID/g
CC(C)C[C@@H]1NC(=O)[C@H](C(C)C)NC(=O)[C@H](CO)NC(=O)CNC(=O)CNC(=O)[C@H](CCCNC(=N)N)NC(=O)[C@@H]2CCCN2C(=O)[C@@H](NC(=O)CC[C@H](NC(=O)c2ccc(N(C)Cc3cnc4nc(N)nc(N)c4n3)cc2)C(=O)O)C(C)(C)SSC[C@@H](C(=O)O)NC(=O)CNC(=O)[C@H]([C@@H](C)O)NC(=O)[C@H](C(C)C)NC1=O  pH of maximum stability (70 °C): 6
CSCC[C@H](NC(=O)[C@H](CC(C)C)NC(=O)[C@H](Cc1c[nH]cn1)NC(=O)CNC(=O)[C@@H](NC(=O)[C@H](C)NC(=O)[C@H](Cc1c[nH]c2ccccc12)NC(=O)[C@H](CCC(N)=O)NC(=O)CCCCCNC(=O)CNC(=O)CNC(=O)CNC(=O)CSC(C)=O)C(C)C)C(N)=O [technetium-99m labelled]  tissue uptake (Swiss mouse, bone; intravenous, 18.5 MBq, 240 min): 0.4 ± 0.11 %ID/g
N=C(N)NCCC[C@@H]1NC(=O)[C@H](CCCCNC(=O)CNC(=O)CNC(=O)CNC(=O)CC[C@H](NC(=O)CCOCCOCCOCCOCCNC(=O)CC[C@H](NC(=O)CN2CCN(CC(=O)O)CCN(CC(=O)O)CCN(CC(=O)O)CC2)C(=O)NCCOCCOCCOCCOCCC(=O)N[C@@H](CCC(=O)NCC(=O)NCC(=O)NCC(=O)NCCCC[C@@H]2NC(=O)[C@@H](Cc3ccccc3)NC(=O)[C@H](CC(=O)O)NC(=O)CNC(=O)[C@H](CCCNC(=N)N)NC2=O)C(=O)NCC(=O)NCC(=O)NCC(=O)NCCCC[C@@H]2NC(=O)[C@@H](Cc3ccccc3)NC(=O)[C@H](CC(=O)O)NC(=O)CNC(=O)[C@H](CCCNC(=N)N)NC2=O)C(=O)NCC(=O)NCC(=O)NCC(=O)NCCCC[C@@H]2NC(=O)[C@@H](Cc3ccccc3)NC(=O)[C@H](CC(=O)O)NC(=O)CNC(=O)[C@H](CCCNC(=N)N)NC2=O)NC(=O)[C@@H](Cc2ccccc2)NC(=O)[C@H](CC(=O)O)NC(=O)CNC1=O [indium-111 labelled]  tissue uptake (athymic nude mice, female, U-87 MG glioma xenograft, bone; intravenous, 3 µCi, 24 h): 0.84 ± 0.1 %ID/g

Repeated from above:
CSCC[C@H](NC(=O)[C@H](CC(C)C)NC(=O)[C@H](Cc1c[nH]cn1)NC(=O)CNC(=O)[C@@H](NC(=O)[C@H](C)NC(=O)[C@H](Cc1c[nH]c2ccccc12)NC(=O)[C@H](CCC(N)=O)NC(=O)CCCCCNC(=O)CNC(=O)CNC(=O)CNC(=O)CSC(C)=O)C(C)C)C(N)=O [technetium-99m labelled]  tissue uptake (Swiss mouse, bone; intravenous, 18.5 MBq, 240 min): 0.4 ± 0.11 %ID/g
